Published values gathered from unrelated publications.
Compare with care: the assays were run in different laboratories. ± marks the error that the study gave.

Structure (SMILES) = O=C([O-])CN1CCN(CC(=O)[O-])CCN(CC(=O)NCCc2ccc3c(c2)C2C=CCC2C(c2cc4c(cc2Br)OCO4)N3)CCN(CC(=O)[O-])CC1.[111In+3] (centres unmarked); test system = mouse, Hec50 endometrial tumour, stomach; conditions = 1 h post injection; tissue uptake = 5.05 ± 1.75 %ID/g
Structure (SMILES) = CCCC[C@H](NC(=O)CNC(=O)CNC(=O)CN1CCN(CC(=O)O)CCN(CC(=O)O)CC1)C(=O)N[C@H]1CC(=O)NCCCC[C@@H](C(N)=O)NC(=O)[C@H](Cc2c[nH]c3ccccc23)NC(=O)[C@H](CCCNC(=N)N)NC(=O)[C@@H](Cc2ccccc2)NC(=O)[C@H](Cc2c[nH]cn2)NC1=O [copper-64 labelled]; test system = female C57 mouse, B16/F1 melanoma, tumor; conditions = intravenous, 0.037 MBq, 0.5 h; tissue uptake = 12.5 ± 0.44 %ID/g
Structure (SMILES) = CN1C(=O)[C@@H](Cc2ccc(O)c(I)c2)NC(=O)CNC(=O)[C@H](Cc2ccc3ccccc3c2)NC(=O)[C@H](CCCNC(=N)N)NC(=O)[C@H]1CCCNC(=O)c1ccc(CNC(=O)CN2CCN(CC(=O)O)CCN(CC(=O)O)CCN(CC(=O)O)CC2)cc1 [lutetium-177 labelled]; test system = female CB-17 SCID mouse, Daudi xenograft, muscle; conditions = intravenous, 6 h, CXCR4 blocking, added: AMD3100 2 mg/kg coinjected; tissue uptake = 0.06 ± 0.001 %ID/g
Structure (SMILES) = CC(C)[C@H](NC(=O)[C@@H]1CCCN1C(=O)[C@H](CCCNC(=N)N)NC(=O)[C@H](CS)NC(=O)[C@H](Cc1c[nH]c2ccccc12)NC(=O)[C@H](CCCNC(=N)N)NC(=O)[C@@H](Cc1ccccc1)NC(=O)[C@H](Cc1c[nH]cn1)NC(=O)[C@H](CCC(=O)O)NC(=O)[C@H](CS)NC(=O)[C@H](CS)NC(=O)[C@@H]1CC(=O)N[C@@H](CCCNC(=N)N)C(=O)NCC(=O)N[C@@H](CC(=O)O)C(=O)N[C@H](Cc2ccc(O)cc2)C(=O)N1)C(N)=O [technetium-99m labelled]; test system = C57 mouse, female, B16/F1 melanoma, stomach; conditions = intravenous, 0.037 MBq, 2 h; tissue uptake = 1.52 ± 0.24 %ID/g
Structure (SMILES) = CN(C)c1ccc(-c2nc3ccc(OCCCCCN4CCN5CCN(CC4)CC(=O)[O][Al]([18F])[O]C(=O)C5)cc3s2)cc1; test system = ICR mouse, pancreas; conditions = intravenous, 2 min; tissue uptake = 4.96 ± 0.38 %ID/g
Structure (SMILES) = CCCC[C@H](NC(=O)CNC(=O)CNC(=O)CN1CCN(CC(=O)O)CCN(CC(=O)O)CCN(CC(=O)O)CC1)C(=O)N[C@H]1CC(=O)NCCCC[C@@H](C(N)=O)NC(=O)[C@H](Cc2c[nH]c3ccccc23)NC(=O)[C@H](CCCNC(=N)N)NC(=O)[C@@H](Cc2ccccc2)NC(=O)[C@H](Cc2c[nH]cn2)NC1=O [lead-203 labelled]; test system = C57 mouse, lung; conditions = intravenous, 0.056 MBq, 4 h; tissue uptake = 0.28 ± 0.15 %ID/g
Structure (SMILES) = CC(C)[C@H](NC(=O)[C@@H]1CCCN1C(=O)[C@H](CCCNC(=N)N)NC(=O)[C@H](CS)NC(=O)[C@H](Cc1c[nH]c2ccccc12)NC(=O)[C@H](CCCNC(=N)N)NC(=O)[C@@H](Cc1ccccc1)NC(=O)[C@H](Cc1c[nH]cn1)NC(=O)[C@H](CCC(=O)O)NC(=O)[C@H](CS)NC(=O)[C@H](CS)NC(=O)CNC(=O)[C@@H]1CC(=O)N[C@@H](CCCNC(=N)N)C(=O)NCC(=O)N[C@@H](CC(=O)O)C(=O)N[C@H](Cc2ccc(O)cc2)C(=O)N1)C(N)=O [technetium-99m labelled]; test system = C57 mouse, female, B16/F1 melanoma, skin; conditions = intravenous, 0.037 MBq, 4 h; tissue uptake = 1 ± 0.39 %ID/g
Structure (SMILES) = CCCC[C@H](NC(=O)CNC(=O)CNC(=O)CN1CCN(CC(=O)O)CCN(CC(=O)O)CCN(CC(=O)O)CC1)C(=O)N[C@H]1CC(=O)NCCCC[C@@H](C(N)=O)NC(=O)[C@H](Cc2c[nH]c3ccccc23)NC(=O)[C@H](CCCNC(=N)N)NC(=O)[C@@H](Cc2ccccc2)NC(=O)[C@H](Cc2c[nH]cn2)NC1=O [copper-64 labelled]; test system = female C57 mouse, B16/F1 melanoma, lung; conditions = intravenous, 0.037 MBq, 24 h; tissue uptake = 4.45 ± 0.51 %ID/g

Some of these lines once more:
Structure (SMILES) = CN(C)c1ccc(-c2nc3ccc(OCCCCCN4CCN5CCN(CC4)CC(=O)[O][Al]([18F])[O]C(=O)C5)cc3s2)cc1; test system = ICR mouse, pancreas; conditions = intravenous, 2 min; tissue uptake = 4.96 ± 0.38 %ID/g
